# Assay results gathered from unrelated publications.
# Each numbered part is a random draw from the data of one study; scales do not carry over between parts. Several values in a cell are separate wells, animals, samples, runs or records.

# Set 1
# Compound: Cc1ccc(O)c(C)c1-c1cnc2[nH]c(-c3cnc(N4CCC5(CC4)CC(N4CCN(c6ccc(N[C@H]7CCC(=O)NC7=O)cc6F)CC4)CO5)nc3)cc2c1C#N (single isomer, unassigned)
tested on,test,system,conditions,inhibition
,"automated immunoblotting, measured: CDK1 phospho-Thr14","mouse, HCC1569 xenograft, tumour","dose not given, 144 h",63.5% and 54.2% and 43.4% and 47.2% and 48.4% and 36.2%
KLE,cell proliferation,,41.15 nM,-2.65% and 1.11% and -2.41%
NCI-H1568,cell proliferation,,1111.11 nM,39.3% and 37.3%
HCC1569,cell proliferation,,3333.33 nM,92.9%
LN-229,cell proliferation,,10000 nM,89.2%
KLE,cell proliferation,,1111.11 nM,84.2%

# Set 2 — effect on: thermal unfolding; method: differential scanning fluorimetry; concentration: 5.5 µM; direction: higher = more unfolded
# SMILES: C[C@@H]1CN(c2ccc(-c3cc(C(=O)NCCOCCOCCOCCOCCNC(=O)/C=C/c4[nH]cc(C(=O)N[C@@H](CC(N)=O)c5ccc(F)c(Cl)c5)c4-c4ccc(Cl)cc4F)ccc3F)cc2NC(=O)c2c[nH]c(=O)cc2C(F)(F)F)C[C@H](C)N1C
# WDR5: WD repeat-containing protein 5 (WDR5, Homo sapiens, UniProt P61964)
# DCAF1: DDB1- and CUL4-associated factor 1 (DCAF1, Homo sapiens, UniProt Q9Y4B6)
# Chain of UniProt Q9Y4B6 (whole entry, looked up): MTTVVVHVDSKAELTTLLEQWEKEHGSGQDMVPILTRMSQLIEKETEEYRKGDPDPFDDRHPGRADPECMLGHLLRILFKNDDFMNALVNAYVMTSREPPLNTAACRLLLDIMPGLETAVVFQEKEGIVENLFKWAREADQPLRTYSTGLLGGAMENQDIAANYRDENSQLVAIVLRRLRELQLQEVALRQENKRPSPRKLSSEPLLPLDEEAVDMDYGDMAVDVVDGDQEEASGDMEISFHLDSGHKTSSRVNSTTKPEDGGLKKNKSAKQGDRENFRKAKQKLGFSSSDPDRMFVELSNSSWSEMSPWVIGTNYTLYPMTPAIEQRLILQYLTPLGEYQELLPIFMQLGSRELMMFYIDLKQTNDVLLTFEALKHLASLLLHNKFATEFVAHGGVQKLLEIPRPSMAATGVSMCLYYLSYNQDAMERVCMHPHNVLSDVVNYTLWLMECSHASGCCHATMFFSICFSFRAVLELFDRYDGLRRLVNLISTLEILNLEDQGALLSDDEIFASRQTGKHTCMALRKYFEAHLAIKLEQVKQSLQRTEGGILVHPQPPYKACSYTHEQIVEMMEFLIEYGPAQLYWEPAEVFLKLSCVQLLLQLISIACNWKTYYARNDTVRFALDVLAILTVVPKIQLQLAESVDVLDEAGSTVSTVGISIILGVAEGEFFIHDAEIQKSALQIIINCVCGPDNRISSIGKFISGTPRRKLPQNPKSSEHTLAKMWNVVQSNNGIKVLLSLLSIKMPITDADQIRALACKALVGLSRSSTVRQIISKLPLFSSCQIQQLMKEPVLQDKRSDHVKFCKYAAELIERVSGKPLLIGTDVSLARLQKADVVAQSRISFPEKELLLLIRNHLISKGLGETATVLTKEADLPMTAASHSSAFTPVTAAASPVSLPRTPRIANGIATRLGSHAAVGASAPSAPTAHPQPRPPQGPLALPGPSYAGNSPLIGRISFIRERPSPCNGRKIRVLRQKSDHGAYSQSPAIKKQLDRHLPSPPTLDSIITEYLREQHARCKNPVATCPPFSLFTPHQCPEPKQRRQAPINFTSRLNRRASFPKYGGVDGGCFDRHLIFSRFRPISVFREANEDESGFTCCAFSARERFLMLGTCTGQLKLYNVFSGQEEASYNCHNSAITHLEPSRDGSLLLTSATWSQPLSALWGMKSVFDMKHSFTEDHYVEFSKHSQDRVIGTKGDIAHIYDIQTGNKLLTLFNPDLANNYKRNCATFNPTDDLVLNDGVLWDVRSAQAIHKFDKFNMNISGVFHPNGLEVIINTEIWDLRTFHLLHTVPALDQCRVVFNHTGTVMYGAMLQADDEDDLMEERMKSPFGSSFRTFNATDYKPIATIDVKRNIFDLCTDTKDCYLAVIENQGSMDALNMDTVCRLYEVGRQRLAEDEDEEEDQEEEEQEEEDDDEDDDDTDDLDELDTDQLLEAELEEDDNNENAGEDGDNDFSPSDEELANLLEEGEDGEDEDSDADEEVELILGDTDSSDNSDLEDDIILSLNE
target,conditions,SYPRO Orange fluorescence [a.u.]
WDR5,38.2 °C,14000
DCAF1,74.01 °C,51200
DCAF1,71.81 °C,53500
DCAF1,65.41 °C,59200
WDR5,94.01 °C,46400

# Set 3
# Structure (SMILES): Cc1ncsc1-c1ccc(C(CO)NC(=O)C2CC(O)CN2C(=O)C(C(C)C)n2cc(-c3ccc(COc4c(-c5c(C)c(F)cc6[nH]ncc56)c(C5CC5)cc5c(N6CC7CC6CN7)nc(OC6CCOCC6)nc45)cc3)nn2)cc1 (stereo not shown)
system,conditions,tumour volume
"mouse, PK-59 xenograft","subcutaneous, 30 mg/kg once daily, day 4",142 mm3 and 158 mm3 and 130 mm3 and 134 mm3
"KP-4 xenograft, mouse","30 mg/kg twice weekly, day 14",440 mm3 and 262 mm3 and 250 mm3 and 313 mm3 and 336 mm3
"mouse, HT-29 xenograft","sc, 30 mg/kg once daily, day 6",356 mm3 and 419 mm3 and 357 mm3 and 437 mm3
"ASPC1 xenograft, mouse","30 mg/kg twice weekly, day 4",209 mm3 and 206 mm3 and 155 mm3 and 195 mm3 and 135 mm3

# Further values, each from its own experiment
Compound,test,system,conditions,quantity,value
Cc1nc(C)c(C=[N+]([O-])C(C)(C)C)nc1C,stereological counting,"MPTP mouse model, substantia nigra",10 mg/kg,TH-positive neuron count,7260 and 7070 and 7530 and 6790

# Excerpt of the above (set 3):
system,conditions,tumour volume
"mouse, HT-29 xenograft","sc, 30 mg/kg once daily, day 6",356 mm3 and 419 mm3 and 357 mm3 and 437 mm3
"ASPC1 xenograft, mouse","30 mg/kg twice weekly, day 4",209 mm3 and 206 mm3 and 155 mm3 and 195 mm3 and 135 mm3
